Experimental data of several laboratories.
Each line is one published result; not all experiments were run side by side. ± gives the spread as reported.
U2AF2: U2AF2 148-342 (Homo sapiens, UniProt P26368)
UniProt P26368, sequence (whole entry, looked up): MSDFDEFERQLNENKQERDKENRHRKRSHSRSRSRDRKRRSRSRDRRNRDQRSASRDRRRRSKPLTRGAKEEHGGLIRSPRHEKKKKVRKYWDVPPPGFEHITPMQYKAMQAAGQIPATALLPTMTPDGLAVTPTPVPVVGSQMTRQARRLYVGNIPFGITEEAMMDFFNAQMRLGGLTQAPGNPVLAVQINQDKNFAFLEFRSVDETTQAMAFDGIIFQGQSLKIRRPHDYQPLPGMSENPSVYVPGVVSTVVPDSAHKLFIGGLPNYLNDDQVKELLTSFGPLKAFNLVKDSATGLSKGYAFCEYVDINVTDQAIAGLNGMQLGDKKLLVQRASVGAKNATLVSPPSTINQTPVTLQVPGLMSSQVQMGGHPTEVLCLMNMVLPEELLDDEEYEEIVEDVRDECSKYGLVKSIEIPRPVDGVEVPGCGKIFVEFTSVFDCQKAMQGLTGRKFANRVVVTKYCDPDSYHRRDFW
B1: ART1 (Homo sapiens, UniProt P52961); chain QSHPITRRDLFSQEIQLDMALASFDDQYAGCAAAMTAALPDLNHTEFQANQVYADSWTLASSQWQERQARWPEWSLSPTRPSPPPLGFRDEHGVALLAYTANSPLHKEFNAAVREAGRSRAHYLHHFSFKTLHFLLTEALQLLGSGQRPPRCHQVFRGVHGLRFRPAGPRATVRLGGFASASLKHVAAQQFGEDTFFGIWTCLGAPIKGYSFFPGEEEVLIPPFETFQVINASRLAQGPARIYLRALGKHSTYNCEYIKDKKCKSGPCHLDNS
B2: enzyme (Kluyveromyces lactis, UniProt Q6CSZ6); chain MSSLDINEQRALIKSAHRYISEKLEDHFSSEFLPKALVICGSGLSGISTKIADEPKPLILSYSTIPGFKVSTVPGHSGELIFGYMNGAPVVLMNGRLHSYEGHSLAETVHPIRALHLLGSINVLIVTNAAGGINASFKAGDLMCVYDHINFPGLCGFHPLRGANFDEFGPRFLATSDAYDLELRKLLFSKKKELNIERKIHEGTYSYVHGPTFESRAESRFLRLAGTDAVGMSTVPEVVTARHCGWRVLALSLITNECVVDPPASAHDENPVPIQEGKATHEEVLENSAKASKDVQELIFSVVAEI
B3: enzyme (UniProt A0A097IUE6); chain TKRAMMATVSSLGIDKATGITKPSKVHRNLPYPEVFEHEQKNKEGEVTKNGTFCVSTGAFTGRSPKDKYFVHQSPSCDTLDWGKINVGVAPDVYKNIYEKAVKHYNENVDSMYVFDGYCGTSPKSRKNVRIITELAWQHHFAKNMFIRPDSEKEVENFNPDFTIINACKVLNKDYKELGLNSDVAVIFNVEEKMAVITGTWYGGEMKKGIFSMMNYWLPLDGIMAMHCSANKGKGGDTALFFGLSGTGKTTLSADPDRYLIGDDEHGWDDHGIFNFEGGCYAKTVNLSKDNEPEIYDAIKRDALLENVIIKSDGEPDYTDTSRTENTRVSYPIYHIDNHEPSGMGGHPTSIIFLTCDAFGVLPPVSRLSGGQAMYHFLSGYTAKVAGTERGVTEPTPNFSACFGAAFLTLHPTKYADLLQKKLDKHQTQCFLINTGWTGGGYGVGKRMSIKATRACVNAVLDGSINKANFTNDEVFGFEVPAELPEVPAQVLNPRAAWSDKEKYDNTRIKLAGMFKDNFKKFIKEGATDYSSYGPK
B4: enzyme (Arabidopsis thaliana, UniProt Q9LY48); chain MNIFQDWPEPIVRVQSLSESNLGAIPNRYVKPLSQRPNITPHNKHNPQTTTIPIIDLGRLYTDDLTLQAKTLDEISKACRELGFFQVVNHGMSPQLMDQAKATWREFFNLPMELKNMHANSPKTYEGYGSRLGVEKGAILDWSDYYYLHYQPSSLKDYTKWPSLPLHCREILEDYCKEMVKLCENLMKILSKNLGLQEDRLQNAFGGKEESGGCLRVNYYPKCPQPELTLGISPHSDPGGLTILLPDEQVASLQVRGSDDAWITVEPAPHAFIVNMGDQIQMLSNSIYKSVEHRVIVNPENERLSLAFFYNPKGNVPIEPLKELVTVDSPALYSSTTYDRYRQFIRTQGPRSKCHIDELKSPR
B5: PYCR2 R119C (Homo sapiens, UniProt Q96C36); chain MSVGFIGAGQLAYALARGFTAAGILSAHKIIASSPEMNLPTVSALRKMGVNLTRSNKETVKHSDVLFLAVKPHIIPFILDEIGADVQARHIVVSCAAGVTISSVEKKLMAFQPAPKVICCMTNTPVVVQEGATVYATGTHALVEDGQLLEQLMSSVGFCTEVEEDLIDAVTGLSGSGPAYAFMALDALADGGVKMGLPRRLAIQLGAQALLGAAKMLLDSEQHPCQLKDNVCSPGGATIHALHFLESGGFRSLLINAVEASCIRTRELQSMADQEKISPAALKKTLLDRVKLESPTVSTLTPSSPGKLLTRSLALGGKKD
B6: enzyme (Actinosynnema mirum, UniProt C6WFL3); chain MDSPAGYRIHDNIPLPGNLDQVDVHVTRDDDYRIHVLPDVDRAVDALLTELDGRRAVVITDDVVADLHEGRVSAELAARGQLIGRTAIRAGEKSKSLTTAFELIDWLAEVNLARRDVVIALGGGVVVDTVGFVASAYMRGVPYVNMPTTLLAQVDAGIGGKVAVDHSEAKNLVGAFYQPKAVISCLEHLRTLDTRQIRSGLAEVVKKAVIASPELFDYIEANADDLLACASPAIDVLVHAAGAIKTKLVGRDPYEIDLRRPLNFGHTTGHAVETVTNYGPVLHGEAVAFGMVVAVDVARARGLVVPEVADRVTALIRRLGLPVALEELGAVPRVDDVVAALLKIRQIRDGSLRFVLPVELGATVIAEDVTEEEVRAALVRLR
B7: SCO6712 S292F/V290N (Streptomyces coelicolor, UniProt Q9XAL8); chain AKGITARTAPAGGEVRHLKMYAEKLADGQMGYGFEKGKASVPGPLIEVNEGDTLHIEFTNTMDVRASLHVHGLDYEISSDGTAMNKSDVEPGGTRTYTWRTHKPGRRDDGTWRPGSAGYWHYHDHVVGTEHGTGGIRNGLYGPVIVRRKGDVLPDATHTIVFNDMTINNRKPHTGPDFEATVGDRVEIVMITHGEYYHTFHMHGHRWADNRTGILTGPDDPSRVIDNKITGPADSFGFQIIAGEGVGAGAWMYHCHNQFHSDMGMVGLFLVKKPDGTIPGYEPHEHGGATAKSGESGEPTGGAAAHEHEH
B8: enzyme (Treponema denticola, UniProt Q73LY9); chain QTNGTMPKRKFVIAFHASVNTDKTGKNLIKELPDLQKRGINTLFLEIGYNYQWKSDPKLYNKYVLSETVAREIAAECRRLSIDLIPEINCLGHQSWENETFALLKAYPELDETPGLYPSNKDIYCRSLCSSNEKVYTILFGLIDEITEVFSVKKIHVGLDEVFLIGEDACPLCRGKDKAELFAGAVNRLYDHCVKKRGFTMYMWGDRLIDSEDEDSGYKGEYESSCNGTYPAVDLIPKDIIICDWHYDELERYGSIPYFLNKGFRVLPTSFKGIKAVNALIDYSLLYKDNPAMLGHMYTAWDNFTNKNLSRYKPMVKTIDKLKAGN
B9: enzyme (Thermotoga maritima, UniProt Q9WXS3); chain MRLNRETIKDRAAWEKIGVRPPYFDLDEVEKNTKEQPKWVHFGGGNIFRGFVAAVLQNLLEEGKEDTGINVIELFDYEVIDKVYKPYDNLSIAVTIKPDGDFEKRIIASVMEALKGDPSHPDWERAKEIFRNPSLQLASLTITEKGYNIEDQAGNLFPQVMEDMKNGPVSPQTSMGKVAALLYERFKAGRLPIALLSLDNFSRNGEKLYSSVKRISEEWVKSGLVEKDFIDYLEKDVAFPWSMIDKIVPGPSEFIKEHLEKLGIEGMEIFVTSKRTHIAPFVNMEWAQYLVIEDSFPNGRPKLEGADRNVFLTDRETVEKAERMKVTTCLNPLHTALAIFGCLLGYKKIADEMKDPLLKKLVEGVGEEGIKVVVDPGIINPREFLNEVINIRLPNPYLPDTPQRIATDTSQKMPIRFGETIKAYHERPDLDPRNLKYIPLVIAGWCRYLMGIDDEGREMQLSPDPLLENLRSYVSKIKFGDPESTDDHLKPILSSQQLFRVNLYEVGLGEKIEELFKKMITGPRAVRKTLEEVVGREDG
UniProt Q89VI2, sequence (whole entry, looked up): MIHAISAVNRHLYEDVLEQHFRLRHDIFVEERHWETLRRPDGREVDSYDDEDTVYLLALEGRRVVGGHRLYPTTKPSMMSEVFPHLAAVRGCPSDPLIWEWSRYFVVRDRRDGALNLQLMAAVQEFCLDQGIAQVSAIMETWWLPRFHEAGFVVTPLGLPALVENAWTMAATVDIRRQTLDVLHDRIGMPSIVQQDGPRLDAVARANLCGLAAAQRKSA
UniProt Q5JHM5, sequence (whole entry, looked up): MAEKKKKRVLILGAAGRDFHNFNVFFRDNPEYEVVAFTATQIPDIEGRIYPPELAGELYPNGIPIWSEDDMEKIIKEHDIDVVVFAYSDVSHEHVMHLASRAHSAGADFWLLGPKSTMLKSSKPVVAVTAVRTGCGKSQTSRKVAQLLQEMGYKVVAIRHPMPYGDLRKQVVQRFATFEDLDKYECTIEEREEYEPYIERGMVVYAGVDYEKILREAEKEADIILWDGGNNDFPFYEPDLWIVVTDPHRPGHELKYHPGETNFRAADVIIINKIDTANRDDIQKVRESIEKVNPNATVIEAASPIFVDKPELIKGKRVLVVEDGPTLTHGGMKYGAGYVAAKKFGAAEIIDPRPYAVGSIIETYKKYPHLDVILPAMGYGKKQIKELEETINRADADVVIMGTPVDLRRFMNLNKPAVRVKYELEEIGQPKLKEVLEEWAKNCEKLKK
UniProt P09546, sequence (whole entry, looked up): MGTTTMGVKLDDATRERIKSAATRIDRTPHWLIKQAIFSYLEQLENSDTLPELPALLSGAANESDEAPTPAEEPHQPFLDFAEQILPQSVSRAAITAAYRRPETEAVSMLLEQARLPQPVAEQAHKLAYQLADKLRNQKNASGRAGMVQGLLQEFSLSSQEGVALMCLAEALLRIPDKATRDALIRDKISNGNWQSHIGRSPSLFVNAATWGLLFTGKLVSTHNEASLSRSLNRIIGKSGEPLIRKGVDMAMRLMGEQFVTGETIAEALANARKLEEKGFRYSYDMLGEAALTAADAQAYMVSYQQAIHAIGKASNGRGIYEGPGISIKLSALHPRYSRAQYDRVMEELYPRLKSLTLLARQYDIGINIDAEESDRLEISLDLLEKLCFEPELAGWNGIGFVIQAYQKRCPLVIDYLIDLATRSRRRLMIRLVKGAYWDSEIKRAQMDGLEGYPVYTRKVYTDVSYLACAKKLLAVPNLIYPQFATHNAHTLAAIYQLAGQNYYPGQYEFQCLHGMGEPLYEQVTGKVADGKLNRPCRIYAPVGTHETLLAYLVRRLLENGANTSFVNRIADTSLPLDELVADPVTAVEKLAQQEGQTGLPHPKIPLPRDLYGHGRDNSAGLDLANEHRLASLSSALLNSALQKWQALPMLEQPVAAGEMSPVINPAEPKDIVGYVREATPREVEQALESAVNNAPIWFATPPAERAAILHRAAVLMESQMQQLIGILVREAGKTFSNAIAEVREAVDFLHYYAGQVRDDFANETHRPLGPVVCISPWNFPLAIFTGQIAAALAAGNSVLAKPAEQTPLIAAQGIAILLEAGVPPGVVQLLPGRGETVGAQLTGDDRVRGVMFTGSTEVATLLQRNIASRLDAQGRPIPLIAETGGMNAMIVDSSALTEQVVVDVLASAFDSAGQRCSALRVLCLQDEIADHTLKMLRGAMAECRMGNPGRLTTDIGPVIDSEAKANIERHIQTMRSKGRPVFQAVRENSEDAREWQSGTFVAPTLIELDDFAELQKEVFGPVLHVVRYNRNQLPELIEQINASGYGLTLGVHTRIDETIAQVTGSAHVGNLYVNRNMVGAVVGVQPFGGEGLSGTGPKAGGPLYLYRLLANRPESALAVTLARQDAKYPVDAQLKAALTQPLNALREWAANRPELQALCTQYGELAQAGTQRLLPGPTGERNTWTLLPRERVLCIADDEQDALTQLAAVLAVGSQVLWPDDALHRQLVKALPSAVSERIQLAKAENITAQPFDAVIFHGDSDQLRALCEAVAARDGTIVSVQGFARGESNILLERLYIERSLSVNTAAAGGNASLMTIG
UniProt O31986, sequence (whole entry, looked up): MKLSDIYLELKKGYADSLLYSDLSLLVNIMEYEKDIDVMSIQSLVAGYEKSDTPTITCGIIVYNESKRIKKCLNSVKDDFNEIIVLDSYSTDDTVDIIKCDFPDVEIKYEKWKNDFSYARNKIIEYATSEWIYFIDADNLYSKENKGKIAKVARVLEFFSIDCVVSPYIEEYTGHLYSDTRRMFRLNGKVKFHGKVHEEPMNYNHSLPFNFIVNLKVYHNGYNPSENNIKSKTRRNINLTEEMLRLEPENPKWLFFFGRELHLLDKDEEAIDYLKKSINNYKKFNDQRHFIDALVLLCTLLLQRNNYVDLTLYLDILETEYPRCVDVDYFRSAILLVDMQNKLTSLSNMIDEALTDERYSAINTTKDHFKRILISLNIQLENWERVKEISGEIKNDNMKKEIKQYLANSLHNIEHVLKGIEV
UniProt P0A9Q9, sequence (whole entry, looked up): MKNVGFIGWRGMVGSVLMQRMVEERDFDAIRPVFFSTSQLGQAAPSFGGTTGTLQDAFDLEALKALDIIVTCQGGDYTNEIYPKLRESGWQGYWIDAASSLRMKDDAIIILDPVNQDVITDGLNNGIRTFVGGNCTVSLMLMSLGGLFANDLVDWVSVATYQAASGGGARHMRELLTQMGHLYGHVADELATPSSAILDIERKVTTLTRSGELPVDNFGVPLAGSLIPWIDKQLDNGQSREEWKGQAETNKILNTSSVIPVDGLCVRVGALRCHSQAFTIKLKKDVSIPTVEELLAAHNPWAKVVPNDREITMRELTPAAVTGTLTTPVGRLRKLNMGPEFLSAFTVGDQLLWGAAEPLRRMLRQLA

Molecule	target or system	test	test system	setting	how to read	quantity	value
CUUUUUGUU (ssRNA)	U2AF2	sequencing of bound RNA	RNA	motif only		Kd	4.17 µM
B1 (ART1)	COC(=O)[C@H](CCCNC(=N)N)NC(C)=O	steady-state kinetics		pH 7.5, 25 °C, HEPES 50 mM, added: saturating NAD+		kcat	9 ± 1.8 s⁻¹
B2 (enzyme)	Nc1nc2c(ncn2[C@H]2C[C@H](O)[C@@H](CO)O2)c(=O)[nH]1	steady-state kinetics				kcat	2.2 ± 0.13 s⁻¹
enzyme (Coleus scutellarioides, UniProt Q84VU3)	O=C(/C=C/c1ccc(O)cc1)O[C@H](Cc1ccc(O)c(O)c1)C(=O)O	steady-state kinetics		pH 7.5, 30 °C, not purified		kcat	0.006 s⁻¹
bjaI (Bradyrhizobium diazoefficiens, UniProt Q89VI2)	CC(C)CC(=O)SCCNC(=O)CCNC(=O)[C@H](O)C(C)(C)COP(=O)(O)OP(=O)(O)OC[C@H]1O[C@@H](n2cnc3c(N)ncnc32)[C@H](O)[C@@H]1OP(=O)(O)O	steady-state kinetics		pH 7.3, added: 30 µM DCPIP, 331 µM SAM		kcat	0.045 ± 0.00333 s⁻¹
acsA D449E (Pseudomonas chlororaphis)	C#CCCC(=O)O	steady-state kinetics		pH 7		kcat	0.0983 ± 0.00667 s⁻¹
B3 (enzyme)	O=C(O)CC(=O)C(=O)O	steady-state kinetics		pH 7.5, 25 °C		kcat	63.5 ± 0.9 s⁻¹
enzyme (Nitrosopumilus maritimus, UniProt A9A5X4)	N[C@H](COP(=O)(O)O)Cc1c[nH]cn1	steady-state kinetics		pH 7.8, 25 °C		kcat	0.79 ± 0.06 s⁻¹
enzyme (UniProt A0A4R3LQ44)	O=C(O)[C@H](O)[C@@H](O)[C@@H](O)CO	steady-state kinetics		pH 7.5, 50 °C		kcat	32 ± 2 s⁻¹
B4 (enzyme)	CC/C=C\C[C@@H]1C(=O)CC[C@@H]1CC(=O)O	steady-state kinetics		pH 7.5, 20 °C		kcat	0.0315 s⁻¹
B5 (PYCR2 R119C)	O=C(O)[C@@H]1CCC=N1	steady-state kinetics		pH 7.5, 37 °C, apparent, added: NADH 500 µM		kcat	0.08 ± 0.01 s⁻¹
AUUAAAAGU (ssRNA)	U2AF2	sequencing of bound RNA	RNA	motif only		Kd	8.06 µM
enzyme M50A (Homo sapiens, UniProt Q08623)	O=c1[nH]cc([C@@H]2O[C@H](COP(=O)(O)O)[C@@H](O)[C@H]2O)c(=O)[nH]1	steady-state kinetics		pH 7, 25 °C		kcat	0.333 s⁻¹
B6 (enzyme)	O=C(CO)[C@@H](O)[C@H](O)[C@H](O)[C@H](O)COP(=O)(O)O	steady-state kinetics		pH 7.5, 28 °C		kcat	0.00667 ± 0.000667 s⁻¹
gdh N192L/N97F (Bacillus subtilis)	NC(=O)c1ccc[n+]([C@@H]2O[C@H](COP(=O)(O)OP(=O)(O)OC[C@H]3O[C@@H](n4cnc5c(N)ncnc54)[C@H](O)[C@@H]3O)[C@@H](O)[C@H]2O)c1	steady-state kinetics		pH 7, 50 °C		kcat	15.6 ± 0.762 s⁻¹
asd (Escherichia coli, UniProt P0A9Q9)	N[C@@H](CCC=O)C(=O)O	steady-state kinetics		pH 7.6, apparent, added: 1 mM NADP+		kcat	0.007 ± 0.003 s⁻¹
enzyme (Bacillus subtilis, UniProt O31986)	O=c1ccn([C@@H]2O[C@H](CO[P@@](=O)(O)O[P@@](=O)(O)O[C@H]3O[C@H](CO)[C@@H](O)[C@H](O)[C@H]3O)[C@@H](O)[C@H]2O)c(=O)[nH]1	steady-state kinetics		pH 7.5, added: SunA		kcat	0.88 ± 0.08 s⁻¹
B7 (SCO6712 S292F/V290N)	CCn1c(=NN=c2sc3cc(S(=O)(=O)O)ccc3n2CC)sc2cc(S(=O)(=O)O)ccc21	steady-state kinetics		pH 7, 37 °C, NaCl 150 mM, added: O2 cosubstrate		kcat	1.65 ± 0.05 s⁻¹
human filamin C	CYB5R4 knockout human cells	PP4 interaction, 3xFLAG-PP4C IP-MS		concentration not given	baseline: CYB5R4 KO over parental	log2 fold change	0.22
B8 (enzyme)	CC(=O)N[C@H]1[C@H](Oc2ccc([N+](=O)[O-])cc2)O[C@H](CO)[C@@H](O)[C@@H]1O[C@@H]1O[C@H](CO)[C@H](O)[C@H](O)[C@H]1O	steady-state kinetics		pH 6, 40 °C		kcat	0.45 ± 0.03 s⁻¹
enzyme (Thermococcus kodakarensis, UniProt Q5JHM5)	O=P(O)(O)O	steady-state kinetics		pH 7.5, 80 °C		kcat	33 ± 0.9 s⁻¹
B9 (enzyme)	O=C(O)[C@@H](O)[C@@H](O)[C@H](O)[C@H](O)CO	steady-state kinetics		pH 8.5, added: NAD		kcat	4.2 ± 0.1 s⁻¹
putA (Escherichia coli, UniProt P09546)	CC1=C(C)C(=O)C(C)=C(C)C1=O	steady-state kinetics		pH 7.4, 20 °C, added: proline 200 mM		kcat	1.2 ± 0.1 s⁻¹

Excerpt of the above:
Molecule	target or system	test	test system	setting	how to read	quantity	value
B4 (enzyme)	CC/C=C\C[C@@H]1C(=O)CC[C@@H]1CC(=O)O	steady-state kinetics		pH 7.5, 20 °C		kcat	0.0315 s⁻¹
B5 (PYCR2 R119C)	O=C(O)[C@@H]1CCC=N1	steady-state kinetics		pH 7.5, 37 °C, apparent, added: NADH 500 µM		kcat	0.08 ± 0.01 s⁻¹
AUUAAAAGU (ssRNA)	U2AF2	sequencing of bound RNA	RNA	motif only		Kd	8.06 µM
